Published values from different studies.
Values joined by “and” are separate records of one study, mostly repeats; a detail may differ. ± gives the spread as reported.
Tumor necrosis factor receptor superfamily member 9/Nectin-4: Tumor necrosis factor receptor superfamily member 9/Nectin-4 (Homo sapiens, UniProt Q07011+Q96NY8)
Sequence of UniProt Q96NY8 (whole entry, looked up): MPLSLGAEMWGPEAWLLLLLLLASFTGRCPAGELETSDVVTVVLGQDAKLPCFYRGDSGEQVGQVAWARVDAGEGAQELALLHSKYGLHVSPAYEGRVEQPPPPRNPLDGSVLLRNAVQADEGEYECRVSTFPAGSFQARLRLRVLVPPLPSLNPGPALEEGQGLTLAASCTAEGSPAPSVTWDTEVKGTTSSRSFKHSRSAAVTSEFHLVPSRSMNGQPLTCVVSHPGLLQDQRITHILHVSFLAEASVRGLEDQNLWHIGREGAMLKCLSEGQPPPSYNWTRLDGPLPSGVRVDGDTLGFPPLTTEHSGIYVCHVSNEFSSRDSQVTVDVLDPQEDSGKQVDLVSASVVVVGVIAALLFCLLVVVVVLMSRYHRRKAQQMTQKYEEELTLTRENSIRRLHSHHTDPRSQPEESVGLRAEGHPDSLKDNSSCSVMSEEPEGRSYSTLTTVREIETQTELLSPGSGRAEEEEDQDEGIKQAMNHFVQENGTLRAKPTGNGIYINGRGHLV
Sequence of UniProt Q07011 (whole entry, looked up): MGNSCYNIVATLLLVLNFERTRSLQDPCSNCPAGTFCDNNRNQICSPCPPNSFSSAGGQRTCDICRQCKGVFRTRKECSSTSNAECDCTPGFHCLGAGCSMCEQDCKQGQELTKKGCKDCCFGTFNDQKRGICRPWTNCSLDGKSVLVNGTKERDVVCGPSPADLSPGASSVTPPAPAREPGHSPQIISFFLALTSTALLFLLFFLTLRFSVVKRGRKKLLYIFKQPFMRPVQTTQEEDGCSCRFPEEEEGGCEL
CYP3A4: Cytochrome P450 3A4 (CYP3A4, Homo sapiens, UniProt P08684)
Sequence of UniProt Q16853 (whole entry, looked up): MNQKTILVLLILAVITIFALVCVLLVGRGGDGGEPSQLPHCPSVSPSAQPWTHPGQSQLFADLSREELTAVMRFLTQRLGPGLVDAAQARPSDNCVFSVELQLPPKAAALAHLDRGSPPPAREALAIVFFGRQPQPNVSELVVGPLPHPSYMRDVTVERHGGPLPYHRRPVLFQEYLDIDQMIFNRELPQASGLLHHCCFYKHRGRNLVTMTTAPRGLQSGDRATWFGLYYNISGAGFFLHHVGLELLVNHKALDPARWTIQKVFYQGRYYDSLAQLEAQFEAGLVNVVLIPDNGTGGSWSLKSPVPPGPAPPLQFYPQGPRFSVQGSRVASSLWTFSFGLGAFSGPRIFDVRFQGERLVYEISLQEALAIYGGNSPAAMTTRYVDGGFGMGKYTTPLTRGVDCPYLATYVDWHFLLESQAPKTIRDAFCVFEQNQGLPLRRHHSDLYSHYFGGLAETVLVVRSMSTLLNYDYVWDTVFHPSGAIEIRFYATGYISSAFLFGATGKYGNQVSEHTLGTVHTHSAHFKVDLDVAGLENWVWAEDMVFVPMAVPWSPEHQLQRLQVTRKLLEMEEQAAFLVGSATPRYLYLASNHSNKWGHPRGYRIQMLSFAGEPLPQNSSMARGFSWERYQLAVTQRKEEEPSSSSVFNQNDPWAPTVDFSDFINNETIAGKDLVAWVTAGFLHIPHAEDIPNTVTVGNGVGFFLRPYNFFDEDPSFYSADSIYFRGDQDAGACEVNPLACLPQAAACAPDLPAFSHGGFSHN
Sequence of UniProt P08684 (whole entry, looked up): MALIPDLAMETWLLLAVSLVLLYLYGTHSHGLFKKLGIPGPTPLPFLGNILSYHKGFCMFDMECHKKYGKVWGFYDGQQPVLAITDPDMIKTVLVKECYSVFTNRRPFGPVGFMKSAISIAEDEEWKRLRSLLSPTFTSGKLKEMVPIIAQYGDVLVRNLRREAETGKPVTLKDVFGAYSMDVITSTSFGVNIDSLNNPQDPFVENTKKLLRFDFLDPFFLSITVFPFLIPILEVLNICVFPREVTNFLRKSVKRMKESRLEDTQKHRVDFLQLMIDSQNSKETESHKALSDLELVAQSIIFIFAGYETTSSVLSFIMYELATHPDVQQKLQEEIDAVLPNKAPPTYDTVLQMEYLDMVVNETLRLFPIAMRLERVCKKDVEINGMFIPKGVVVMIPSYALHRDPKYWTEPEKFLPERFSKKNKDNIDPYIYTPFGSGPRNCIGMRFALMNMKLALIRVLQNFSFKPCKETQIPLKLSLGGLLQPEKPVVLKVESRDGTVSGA
Sequence of UniProt P08183 (whole entry, looked up): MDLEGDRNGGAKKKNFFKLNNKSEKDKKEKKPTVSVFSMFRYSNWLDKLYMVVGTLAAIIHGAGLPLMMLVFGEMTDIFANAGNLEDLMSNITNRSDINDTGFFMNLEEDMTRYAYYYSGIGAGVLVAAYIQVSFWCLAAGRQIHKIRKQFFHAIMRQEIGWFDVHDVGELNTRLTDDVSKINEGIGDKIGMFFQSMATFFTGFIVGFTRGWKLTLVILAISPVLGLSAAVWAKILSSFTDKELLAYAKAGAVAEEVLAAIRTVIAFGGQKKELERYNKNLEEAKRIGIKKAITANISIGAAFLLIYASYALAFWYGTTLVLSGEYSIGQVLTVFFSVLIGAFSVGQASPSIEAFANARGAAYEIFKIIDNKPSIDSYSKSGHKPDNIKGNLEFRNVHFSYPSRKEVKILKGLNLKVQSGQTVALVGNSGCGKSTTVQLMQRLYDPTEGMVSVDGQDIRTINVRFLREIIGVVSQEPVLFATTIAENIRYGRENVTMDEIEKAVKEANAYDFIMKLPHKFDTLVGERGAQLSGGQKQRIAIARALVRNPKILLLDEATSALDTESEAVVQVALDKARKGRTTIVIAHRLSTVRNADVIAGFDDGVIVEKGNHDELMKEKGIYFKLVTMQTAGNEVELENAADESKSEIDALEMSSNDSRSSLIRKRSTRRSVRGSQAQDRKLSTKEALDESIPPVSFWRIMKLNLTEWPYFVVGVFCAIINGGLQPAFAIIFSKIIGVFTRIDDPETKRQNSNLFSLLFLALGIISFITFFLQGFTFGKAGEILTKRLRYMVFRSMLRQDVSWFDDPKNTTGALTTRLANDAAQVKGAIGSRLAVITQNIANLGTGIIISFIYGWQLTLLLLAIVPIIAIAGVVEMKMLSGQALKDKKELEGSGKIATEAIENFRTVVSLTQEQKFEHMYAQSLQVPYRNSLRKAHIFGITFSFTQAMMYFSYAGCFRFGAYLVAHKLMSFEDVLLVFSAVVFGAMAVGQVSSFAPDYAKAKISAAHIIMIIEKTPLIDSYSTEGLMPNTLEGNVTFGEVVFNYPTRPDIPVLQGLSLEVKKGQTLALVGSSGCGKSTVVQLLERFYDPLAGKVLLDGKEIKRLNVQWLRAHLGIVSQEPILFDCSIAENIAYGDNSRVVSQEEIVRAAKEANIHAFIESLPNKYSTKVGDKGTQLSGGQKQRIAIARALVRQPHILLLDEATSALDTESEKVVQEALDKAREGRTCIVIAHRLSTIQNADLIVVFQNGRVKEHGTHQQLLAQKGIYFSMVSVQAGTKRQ
Sequence of UniProt Q92887 (whole entry, looked up): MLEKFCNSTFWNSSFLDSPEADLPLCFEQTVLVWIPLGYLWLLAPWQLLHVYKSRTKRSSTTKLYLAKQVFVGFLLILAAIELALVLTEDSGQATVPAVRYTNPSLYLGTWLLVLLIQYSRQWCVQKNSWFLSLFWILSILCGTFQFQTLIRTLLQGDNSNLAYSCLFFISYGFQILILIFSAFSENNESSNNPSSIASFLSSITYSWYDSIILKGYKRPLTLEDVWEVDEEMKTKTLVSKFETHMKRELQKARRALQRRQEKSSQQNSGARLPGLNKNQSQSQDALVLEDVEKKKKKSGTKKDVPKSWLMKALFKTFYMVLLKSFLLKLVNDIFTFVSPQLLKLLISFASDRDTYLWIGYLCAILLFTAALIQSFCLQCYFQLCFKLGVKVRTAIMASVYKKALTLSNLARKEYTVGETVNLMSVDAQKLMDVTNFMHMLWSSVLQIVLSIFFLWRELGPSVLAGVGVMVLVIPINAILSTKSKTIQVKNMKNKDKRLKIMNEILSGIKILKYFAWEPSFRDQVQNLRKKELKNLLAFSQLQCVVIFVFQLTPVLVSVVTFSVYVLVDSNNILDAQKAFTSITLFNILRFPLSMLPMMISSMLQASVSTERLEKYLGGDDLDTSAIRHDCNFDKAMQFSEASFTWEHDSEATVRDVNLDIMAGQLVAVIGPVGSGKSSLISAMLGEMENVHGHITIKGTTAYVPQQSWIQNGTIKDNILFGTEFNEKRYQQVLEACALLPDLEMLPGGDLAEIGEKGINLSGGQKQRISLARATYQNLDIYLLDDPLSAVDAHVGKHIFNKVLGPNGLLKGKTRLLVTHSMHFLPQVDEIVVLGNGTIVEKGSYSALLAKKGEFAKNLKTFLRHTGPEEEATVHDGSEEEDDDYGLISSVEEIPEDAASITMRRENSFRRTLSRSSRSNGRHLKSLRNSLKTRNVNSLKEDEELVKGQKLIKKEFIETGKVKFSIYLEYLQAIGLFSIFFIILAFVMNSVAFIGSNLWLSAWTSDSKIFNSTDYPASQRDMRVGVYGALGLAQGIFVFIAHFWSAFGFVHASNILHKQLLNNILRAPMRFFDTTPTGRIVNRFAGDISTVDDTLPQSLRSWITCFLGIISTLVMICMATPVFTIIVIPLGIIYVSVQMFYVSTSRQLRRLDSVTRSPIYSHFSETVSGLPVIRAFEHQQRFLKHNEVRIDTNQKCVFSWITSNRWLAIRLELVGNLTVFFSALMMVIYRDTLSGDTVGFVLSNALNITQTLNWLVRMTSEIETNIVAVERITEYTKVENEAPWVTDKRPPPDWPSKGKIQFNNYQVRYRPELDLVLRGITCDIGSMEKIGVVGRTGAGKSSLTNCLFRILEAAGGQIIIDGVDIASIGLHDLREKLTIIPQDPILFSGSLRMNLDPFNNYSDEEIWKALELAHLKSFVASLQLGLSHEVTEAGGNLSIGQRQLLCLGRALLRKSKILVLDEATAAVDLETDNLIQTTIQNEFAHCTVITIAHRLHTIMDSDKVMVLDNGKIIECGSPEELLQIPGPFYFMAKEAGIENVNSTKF

SMILES	target	assay	test system	setting	scale	endpoint	result
Cc1oc2ccccc2c1Cc1cc(I)c(OCC(=O)O)c(I)c1	KCNH2 (Homo sapiens, UniProt Q12809, S620T)	potassium current, activator, whole-cell patch clamp	HEK293 expressing hERG1-S620T	10 µM		current enhancement	299 ± 41%
COc1cc2c(CCNC(C)=O)c[nH]c2cc1O	SULT1A3 (Homo sapiens, UniProt P0DMM9)	substrate, sulfation, purified enzyme		10 µM, 10 min, pH 7.0, 37 °C		specific activity	12 ± 0.49 nmol/min/mg
CCCC[C@@H]1NC(=O)[C@H](Cc2ccc(O)cc2)NC(=O)[C@H](C)N(C)C(=O)[C@H](CC(=O)O)NC(=O)[C@H](C)NC(=O)[C@H](Cc2ccccc2)NC(=O)[C@@H]2CSCCC(=O)N3CN(CN(C3)C(=O)CCSC[C@H](NC(C)=O)C(=O)N[C@@H](CC(C)(C)C)C(=O)N3CCC[C@H]3C(=O)N[C@@H](CCC(=O)O)C(=O)N[C@H](CCCCNC(=O)CCc3cn(CCOCCOCCOCCN(CCOCCOCCOCCC(=O)N[C@H]4CSCCC(=O)N5CN6CN(C5)C(=O)CCSC[C@H](NC(=O)[C@@H](CC(=O)O)NC(=O)[C@H](Cc5cccc7ccccc57)NC(=O)[C@@H]5CCCN5C4=O)C(=O)N[C@@H](CCSC)C(=O)N[C@@H](CCCCNC(=N)N)C(=O)N[C@@H](CC(=O)O)C(=O)N[C@@H](Cc4c[nH]c5ccccc45)C(=O)N[C@@H](CO)C(=O)N[C@@H]([C@@H](C)O)C(=O)N4CCC[C@H]4C(=O)N4C[C@H](O)C[C@H]4C(=O)N[C@@H](Cc4c[nH]c5ccccc45)C(=O)N[C@H](C(N)=O)CSCCC6=O)CCOCCOCCOCCn4cc(CCC(=O)NCCCC[C@H]5NC(=O)[C@H](CCC(=O)O)NC(=O)[C@@H]6CCCN6C(=O)[C@H](CC(C)(C)C)NC(=O)[C@@H](NC(C)=O)CSCCC(=O)N6CN7CN(C6)C(=O)CCSC[C@H](NC(=O)[C@H](Cc6ccc(O)cc6)NC(=O)[C@@H]6CCCN6C5=O)C(=O)N[C@@H](Cc5ccccc5)C(=O)N[C@@H](C)C(=O)N[C@@H](CC(=O)O)C(=O)N(C)[C@@H](C)C(=O)N[C@@H](Cc5ccc(O)cc5)C(=O)N[C@@H](CCCC)C(=O)N[C@H](C(N)=O)CSCCC7=O)nn4)nn3)C(=O)N3CCC[C@H]3C(=O)N[C@@H](Cc3ccc(O)cc3)C(=O)N2)C(=O)CCSC[C@@H](C(N)=O)NC1=O	Tumor necrosis factor receptor superfamily member 9/Nectin-4	reporter gene, agonist, luciferase reporter	CD137 Jurkat reporter with HT-1376	6 h, geometric mean	reference: wells without compound	Emax	76 fold
O=C(c1ccc(C(=O)N2CCC(N3CCCC3)CC2)c(Nc2ccccc2)c1)N1CCC(N2CCCC2)CC1	Lethal(3)malignant brain tumor-like protein 3 (Homo sapiens, UniProt Q96JM7)	FRAP	human cells	0.5 µM		FRAP recovery half-time	20.3 s
O=C(O)CN1Cc2cccc(n2)CN(CC(=O)O)Cc2cccc(n2)C1	Mn2+	potentiometric titration	0.16 M NaCl	25 °C		log stability constant, hydroxo complex	10.2
COc1cc(O)c(CC=C(C)C)c(O)c1C(=O)/C=C/c1ccc(O)cc1	CYP2B6 (human)	enzyme activity, inhibitor	human liver microsomes	10 µM, pH 7.4, with: bupropion		inhibition	43.9 ± 1.3%
Cc1cc(Nc2ncnc3ccc(NC4=NC(C)(CO)CO4)cc23)ccc1Oc1ccn2ncnc2c1 (stereo not shown)	CYP3A4		human, plasma	oral, 300 mg tucatinib single dose, day 1, tucatinib alone		AUC(0-t) (arithmetic mean)	506 ng·h/mL
CCCN(CCC)S(=O)(=O)c1ccc(C(=O)O)cc1	ABCC2 (Homo sapiens, UniProt Q92887)	transport activity, inhibitor	membrane vesicles overexpressing target	300 µM		inhibition	22%
NCc1cc2c(cc1F)C(=O)N(C1CCC(=O)NC1=O)C2 (stereo not shown)	AOC3 (Homo sapiens, UniProt Q16853)	substrate, LC-MS/MS	cirrhotic human liver lysate	1000.00 µM, 60 min, pH 7.4		concentration	1360 ng/mL and 1700 ng/mL
CCCC[C@@H]1NC(=O)[C@H](Cc2ccc(O)cc2)NC(=O)[C@@H]2CCCN2C(=O)[C@H](CC(=O)O)NC(=O)[C@H](C)NC(=O)[C@H](Cc2ccccc2)NC(=O)[C@@H]2CSCCC(=O)N3CN(CN(C3)C(=O)CCSC[C@@H](C(=O)N[C@@H](C)C(N)=O)NC1=O)C(=O)CCSC[C@H](NC(C)=O)C(=O)N[C@@H](CC(C)(C)C)C(=O)N1CCC[C@H]1C(=O)N[C@@H](CCCCNC(=O)CCc1cn(CCOCCOCCOCCOCCOCCC(=O)N[C@H]3CSCCC(=O)N4CN5CN(C4)C(=O)CCSC[C@H](NC(=O)[C@@H](CC(=O)O)NC(=O)[C@H](Cc4cccc6ccccc46)NC(=O)[C@@H]4CCCN4C3=O)C(=O)N[C@@H](CCSC)C(=O)N[C@@H](CCCCNC(=N)N)C(=O)N[C@@H](CC(=O)O)C(=O)N[C@@H](Cc3c[nH]c4ccccc34)C(=O)N[C@@H](CO)C(=O)N[C@@H]([C@@H](C)O)C(=O)N3CCC[C@H]3C(=O)N3C[C@H](O)C[C@H]3C(=O)N[C@@H](Cc3c[nH]c4ccccc34)C(=O)N[C@H](C(N)=O)CSCCC5=O)nn1)C(=O)N[C@H](C)C(=O)N1CCC[C@H]1C(=O)N[C@@H](Cc1ccc(O)cc1)C(=O)N2	Tumor necrosis factor receptor superfamily member 9/Nectin-4	reporter gene, agonist, luciferase reporter	CD137 Jurkat reporter with HT-1376	6 h, geometric mean	reference: wells without compound	Emax	37 fold
C=CC(=O)N1C[C@H](Nc2ncnc3[nH]ccc23)CC[C@@H]1C	CYP	substrate	human, plasma	oral, single dose, with: rifampicin multiple doses once daily		AUC(0-inf)	261 ng·h/mL
CCCC[C@@H]1NC(=O)[C@H](Cc2ccc(O)cc2)NC(=O)[C@@H]2CCCN2C(=O)[C@H](CC(=O)O)NC(=O)[C@H](C)NC(=O)[C@H](Cc2ccccc2)NC(=O)[C@@H]2CSCCC(=O)N3CN(CN(C3)C(=O)CCSC[C@@H](C(=O)N[C@@H](CNC(=O)CCc3cn(CCOCCOCCOCCOCCOCCOCCOCCOCCOCCOCCNC(=O)N[C@H]4CSCCC(=O)N5CN6CN(C5)C(=O)CCSC[C@H](NC(=O)[C@@H](CC(=O)O)NC(=O)[C@H](Cc5cccc7ccccc57)NC(=O)[C@@H]5CCCN5C4=O)C(=O)N[C@@H](CCSC)C(=O)N[C@@H](CCCCNC(=N)N)C(=O)N[C@@H](CC(=O)O)C(=O)N[C@@H](Cc4c[nH]c5ccccc45)C(=O)N[C@@H](CO)C(=O)N[C@@H]([C@@H](C)O)C(=O)N4CCC[C@H]4C(=O)N4C[C@H](O)C[C@H]4C(=O)N[C@@H](Cc4c[nH]c5ccccc45)C(=O)N[C@H](C(N)=O)CSCCC6=O)nn3)C(N)=O)NC1=O)C(=O)CCSC[C@H](NC(=O)[C@H](C)NC(C)=O)C(=O)N[C@@H]([C@@H](C)CC)C(=O)N[C@@H](CCC(=O)O)C(=O)N[C@@H](CCC(=O)O)C(=O)NCC(=O)N[C@@H](CCC(N)=O)C(=O)N[C@@H](Cc1ccc(O)cc1)C(=O)N2	Tumor necrosis factor receptor superfamily member 9/Nectin-4	reporter gene, agonist, luciferase reporter	CD137 Jurkat reporter with HT-1376	6 h, geometric mean	reference: wells without compound	Emax	23 fold
CCc1c2c(nc3ccc(O)cc13)-c1cc3c(c(=O)n1C2)COC(=O)[C@]3(O)CC	UGT (mouse)	glucuronidation, substrate	FVB mouse, liver S9 fraction	30 min, pH 7.4		Km	31 ± 37.9 µM
CC1(C)CCC2(CC1)N[C@@H](C(=O)N[C@@H]1CC[C@@H](C(N)=O)OC1)[C@H](c1ccnc(Cl)c1F)[C@]21C(=O)Nc2cc(Cl)ccc21	ABCB1 (Homo sapiens, UniProt P08183)		Caco-2	1 µM, 120 min, with: elacridar 5 µM		Papp(A-B)	5.07 ×10⁻⁶ cm/s
CCCC[C@@H]1NC(=O)[C@H](Cc2ccc(O)cc2)NC(=O)[C@@H]2CCCN2C(=O)[C@H](CC(=O)O)NC(=O)[C@H](C)NC(=O)[C@H](Cc2ccccc2)NC(=O)[C@@H]2CSCCC(=O)N3CN(CN(C3)C(=O)CCSC[C@@H](C(=O)N[C@@H](C)C(N)=O)NC1=O)C(=O)CCSC[C@H](NC(C)=O)C(=O)N[C@@H](CC(C)(C)C)C(=O)N1CCC[C@H]1C(=O)N[C@@H](CCC(=O)O)C(=O)N[C@H](CCCCNC(=O)CCc1cn(CCOCCOCCOCCOCCOCCOCCOCCOCCOCCOCCNC(=O)c3cc(C(=O)NCCOCCOCCOCCOCCOCCOCCOCCOCCOCCOCCn4cc(CCC(=O)NCCCC[C@H]5NC(=O)[C@H](CCC(=O)O)NC(=O)[C@@H]6CCCN6C(=O)[C@H](CC(C)(C)C)NC(=O)[C@@H](NC(C)=O)CSCCC(=O)N6CN7CN(C6)C(=O)CCSC[C@H](NC(=O)[C@H](Cc6ccc(O)cc6)NC(=O)[C@@H]6CCCN6C5=O)C(=O)N[C@@H](Cc5ccccc5)C(=O)N[C@@H](C)C(=O)N[C@@H](CC(=O)O)C(=O)N5CCC[C@H]5C(=O)N[C@@H](Cc5ccc(O)cc5)C(=O)N[C@@H](CCCC)C(=O)N[C@H](C(=O)N[C@@H](C)C(N)=O)CSCCC7=O)nn4)cc(C(=O)NCCOCCOCCOCCOCCOCCOCCOCCOCCOCCOCCn4cc(CCC(=O)N[C@H]5CSCCC(=O)N6CN7CN(C6)C(=O)CCSC[C@H](NC(=O)[C@@H](CC(=O)O)NC(=O)[C@H](Cc6cccc8ccccc68)NC(=O)[C@@H]6CCCN6C5=O)C(=O)N[C@@H](CCSC)C(=O)N[C@@H](CCCCNC(=N)N)C(=O)N[C@@H](CC(=O)O)C(=O)N[C@@H](Cc5c[nH]c6ccccc56)C(=O)N[C@@H](CO)C(=O)N[C@@H]([C@@H](C)O)C(=O)N5CCC[C@H]5C(=O)N5C[C@H](O)C[C@H]5C(=O)N[C@@H](Cc5c[nH]c6ccccc56)C(=O)N[C@H](C(N)=O)CSCCC7=O)nn4)c3)nn1)C(=O)N1CCC[C@H]1C(=O)N[C@@H](Cc1ccc(O)cc1)C(=O)N2	Tumor necrosis factor receptor superfamily member 9/Nectin-4	reporter gene, agonist, luciferase reporter	CD137 Jurkat reporter with HT-1376	6 h, geometric mean	reference: wells without compound	Emax	64 fold
CC[C@H]1[C@@H](O)[C@@H]2[C@H](CC[C@]3(C)[C@@H]([C@H](C)CCNC(=O)NS(=O)(=O)c4ccc(C(C)(C)C)cc4)CC[C@@H]23)[C@@]2(C)CC[C@@H](O)C[C@@H]12	CYP3A4		human, plasma	geometric mean		Tlast	72 h

Some of these lines once more:
SMILES	target	assay	test system	setting	scale	endpoint	result
COc1cc2c(CCNC(C)=O)c[nH]c2cc1O	SULT1A3 (Homo sapiens, UniProt P0DMM9)	substrate, sulfation, purified enzyme		10 µM, 10 min, pH 7.0, 37 °C		specific activity	12 ± 0.49 nmol/min/mg
CCCC[C@@H]1NC(=O)[C@H](Cc2ccc(O)cc2)NC(=O)[C@H](C)N(C)C(=O)[C@H](CC(=O)O)NC(=O)[C@H](C)NC(=O)[C@H](Cc2ccccc2)NC(=O)[C@@H]2CSCCC(=O)N3CN(CN(C3)C(=O)CCSC[C@H](NC(C)=O)C(=O)N[C@@H](CC(C)(C)C)C(=O)N3CCC[C@H]3C(=O)N[C@@H](CCC(=O)O)C(=O)N[C@H](CCCCNC(=O)CCc3cn(CCOCCOCCOCCN(CCOCCOCCOCCC(=O)N[C@H]4CSCCC(=O)N5CN6CN(C5)C(=O)CCSC[C@H](NC(=O)[C@@H](CC(=O)O)NC(=O)[C@H](Cc5cccc7ccccc57)NC(=O)[C@@H]5CCCN5C4=O)C(=O)N[C@@H](CCSC)C(=O)N[C@@H](CCCCNC(=N)N)C(=O)N[C@@H](CC(=O)O)C(=O)N[C@@H](Cc4c[nH]c5ccccc45)C(=O)N[C@@H](CO)C(=O)N[C@@H]([C@@H](C)O)C(=O)N4CCC[C@H]4C(=O)N4C[C@H](O)C[C@H]4C(=O)N[C@@H](Cc4c[nH]c5ccccc45)C(=O)N[C@H](C(N)=O)CSCCC6=O)CCOCCOCCOCCn4cc(CCC(=O)NCCCC[C@H]5NC(=O)[C@H](CCC(=O)O)NC(=O)[C@@H]6CCCN6C(=O)[C@H](CC(C)(C)C)NC(=O)[C@@H](NC(C)=O)CSCCC(=O)N6CN7CN(C6)C(=O)CCSC[C@H](NC(=O)[C@H](Cc6ccc(O)cc6)NC(=O)[C@@H]6CCCN6C5=O)C(=O)N[C@@H](Cc5ccccc5)C(=O)N[C@@H](C)C(=O)N[C@@H](CC(=O)O)C(=O)N(C)[C@@H](C)C(=O)N[C@@H](Cc5ccc(O)cc5)C(=O)N[C@@H](CCCC)C(=O)N[C@H](C(N)=O)CSCCC7=O)nn4)nn3)C(=O)N3CCC[C@H]3C(=O)N[C@@H](Cc3ccc(O)cc3)C(=O)N2)C(=O)CCSC[C@@H](C(N)=O)NC1=O	Tumor necrosis factor receptor superfamily member 9/Nectin-4	reporter gene, agonist, luciferase reporter	CD137 Jurkat reporter with HT-1376	6 h, geometric mean	reference: wells without compound	Emax	76 fold
